Measurements collected from several papers.
Each numbered part is a random draw from the data of one study; scales do not carry over between parts. Several values in a cell are separate wells, animals, samples, runs or records.

Series 1
Target: Replicase polyprotein 1ab, main protease (rep, Severe acute respiratory syndrome coronavirus 2, UniProt P0DTD1)
Read-out: enzyme activity
Action: inhibitor
Concentration: 20 µM
Notes: hit confirmation
Endpoint: inhibition
C[C@@H]1O[C@@H](O[C@@H]2[C@@H](O)[C@H](OCCc3ccc(O)c(O)c3)O[C@H](CO)[C@H]2OC(=O)/C=C/c2ccc(O)c(O)c2)[C@H](O)[C@H](O)[C@H]1O: 95.4%
COc1cc2c(cc1OCCCN1CCCC1)N=C(N)C21CCC1: 5.2%
CCCC[C@@H](C=O)NC(=O)[C@H](CC(C)C)NC(=O)OCc1ccccc1: 78.2% and 57.5%

Series 2
Target: Replicase polyprotein 1ab, nsp13 helicase (rep, Severe acute respiratory syndrome coronavirus 2, UniProt P0DTD1)
Action: inhibitor
Concentration: 20 µM
Endpoint: inhibition
CC[C@H](CC[C@@H](C)[C@H]1CC[C@H]2[C@@H]3CC=C4C[C@@H](O)CC[C@]4(C)[C@H]3CC[C@]12C)C(C)C: 11.7%
COc1cccc(-c2ccc(NC(=O)C3=C(C(=O)O)CCC3)c(F)c2)c1: 7.54%
CO[C@H]1C[C@H](O[C@H]2[C@H](C)O[C@@H](O[C@@H]3/C(C)=C/C[C@@H]4C[C@@H](C[C@]5(C=C[C@H](C)[C@@H](C6CCCCC6)O5)O4)OC(=O)[C@@H]4C=C(C)[C@@H](O)[C@H]5OC/C(=C\C=C\[C@@H]3C)[C@]54O)C[C@@H]2OC)O[C@@H](C)[C@@H]1O: 0.49%
COc1cc2c(cc1OC)CN(C(=O)/C=C/c1c(-c3ccccc3)n(C)c3ncccc13)CC2: 6.45%
CN(CCOc1ccc(CC2SC(=O)NC2=O)cc1)c1ccccn1 (centres unmarked): 4.99%
O=C(COc1cccc2c(=O)[nH]ccc12)c1ccccc1: 1.84%
O=C(Nc1cccc(Cl)c1)c1ccccn1: 6.72%
CN(C)CCn1nnnc1SCC1=C(C(=O)O)N2C(=O)[C@@H](NC(=O)Cc3csc(N)n3)[C@H]2SC1: -0.09%
C1=Cc2cccc(OCC3CNCCO3)c2C1 (centres unmarked): 1.25%
CC(C)(CO)Cc1cc(C(C)(C)C)c(O)c(C(C)(C)C)c1: 2.6%
CN1CCC2=C(C1)c1ccccc1Cc1ccccc12: 6.11%
CN1CCN(C(c2ccccc2)c2ccc(Cl)cc2)CC1 (centres unmarked): -5.27%
Cc1o[nH]c(=O)c1C[C@@H](N)C(=O)O (racemic): 7.41%
C/C=C/C/C=C/CCC(=O)[C@H]1O[C@H]1C(N)=O: -0.14%
CC(Cc1ccccc1)(NC(=O)CN)c1ccccc1 (centres unmarked): -3.07%
O=S(=O)(O)CCSSCCS(=O)(=O)O: 0.85%
Cn1cc(-c2cnc3ccc4ccc(CS(=O)(=O)NCc5ccccn5)cc4c(=O)c3c2)cn1: 2.5%
Oc1c(Cl)cc(Cl)c2cccnc12: 3.78%
CN1CCCN=C1COC(=O)C(O)(c1ccccc1)C1CCCCC1 (centres unmarked): 0.28%
COC(=O)[C@]12CCC(C)(C)C[C@H]1[C@H]1C(=O)C=C3[C@@]4(C)C=C(C#N)C(=O)C(C)(C)[C@@H]4CC[C@@]3(C)[C@]1(C)CC2: 11.2%
CCC[C@@H]1C[C@@H](C(=O)N[C@@H]([C@H]2O[C@H](SC)[C@H](O)[C@@H](O)[C@H]2O)[C@@H](C)O)N(C)C1: 5.07%
Cc1ccc(NC(=O)C(C)C)cc1C1CCN(Cc2ccc(Oc3ccc(F)c(F)c3)cc2)CC1: 1.56%
CC(=O)Nc1ccc(NC(=S)NC(=O)c2ccc(C(C)(C)C)cc2)cc1: -0.84%
COc1cc(OC)c(C=C2C(=O)Nc3ccccc32)c(OC)c1: 4.69%
Cc1cc2nc3ccc(N(C)C)cc3[s+]c2cc1N: 107%

Series 3
Target: Centromere-binding protein 1, full length, N-terminal tag (CBF1, Saccharomyces cerevisiae, UniProt P17106, residues 1-351)
Sequence of UniProt P17106 (whole entry, looked up): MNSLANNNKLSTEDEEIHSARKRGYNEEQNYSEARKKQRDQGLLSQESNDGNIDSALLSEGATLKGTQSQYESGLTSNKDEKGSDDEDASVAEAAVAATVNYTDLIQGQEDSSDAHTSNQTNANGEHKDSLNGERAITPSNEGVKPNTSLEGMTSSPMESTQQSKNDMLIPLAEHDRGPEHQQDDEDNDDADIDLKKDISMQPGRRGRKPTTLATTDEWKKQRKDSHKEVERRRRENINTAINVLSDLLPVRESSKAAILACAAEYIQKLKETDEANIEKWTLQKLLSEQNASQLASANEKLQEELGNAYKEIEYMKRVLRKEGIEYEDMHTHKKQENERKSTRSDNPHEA
Technique: protein-binding microarray
Molecule type: double-stranded DNA, one strand shown
Medium: in vitro
Concentration: 0.8 µM
Notes: whole 60-bp probe, no competitor
Direction: higher = stronger binding
Endpoint: fluorescence intensity
All sequences stand within: … GTCTTGATTCGCTTGACGCTGCTG
CTAAAAAAAAAGATCATCATGATTACGTAGAAATTC: 509 a.u.
GAAAATTGAAAAATTAACGTGGACCCTGGGAAGTAG: 546 a.u.
GAAGCTAGACAGTAGAACGTGTTTTGAAGCCAATAG: 561 a.u.
CTAACCTAATAACTTCATGTGATCTGCTCCCCCTTC: 1090 a.u.
CTATGTTATCCGGCGCACGATACTTATCACCGATTC: 582 a.u.
CTAGGAAAAGTGTCTCACATGTAAAGGATTAAATTC: 730 a.u.
GAAGTCATAAAAAGAGACGTGATTAAACCTAAATAG: 662 a.u.
GAACTAAAGAAAAGTGAGGTCACCTACCATCAATAG: 536 a.u.

Series 4
Target: RING finger protein unkempt homolog, zinc fingers 1-6, GST-SBP tag (UNK, Homo sapiens, UniProt Q9C0B0, residues 30-357)
Technique: RNA Bind-n-Seq
Molecule type: RNA
Medium: in vitro
Concentration: not given
Notes: RNA with constant flanks, human and mouse sites, ends assumed
Baseline: input RNA pool
Direction: higher = stronger binding
Endpoint: bound/input enrichment
All sequences stand within: GGGAGUUCUACAGUCCGACGAUC … CAACAGAGGAUUGAGCAUCA
Construct (chain): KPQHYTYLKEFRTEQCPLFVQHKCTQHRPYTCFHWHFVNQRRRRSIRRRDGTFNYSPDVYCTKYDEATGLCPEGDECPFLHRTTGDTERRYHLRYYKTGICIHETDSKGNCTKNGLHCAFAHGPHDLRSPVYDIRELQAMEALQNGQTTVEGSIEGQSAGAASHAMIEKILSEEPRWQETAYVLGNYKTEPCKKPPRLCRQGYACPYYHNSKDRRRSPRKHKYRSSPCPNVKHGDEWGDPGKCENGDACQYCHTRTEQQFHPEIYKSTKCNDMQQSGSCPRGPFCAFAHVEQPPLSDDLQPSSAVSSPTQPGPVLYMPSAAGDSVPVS
GAAGACCCAUACCCACACAAGUUCCAUGUAGACAUCUCACUCACUGACUUCAUCCAAAAAUAUAGUCACCUGCAGCCUGGGGAUCACCUGACUGACAUCACCUUAAAGGUGGCAGGUAGG: 0.456 ratio
UAAGAUGUAUUCUGUACAUAAUUUACAAAUAAAACAUUUUAUUUUAAUUGUUACUUAUUAUUUAGACAUUUCUCAACACUGAAAUUUGUAAAACAAAAACCAUGUAAGGUAUGUUUUUAG: 2.87 ratio
CUGCUCCGCUACCAACCCCGCAGUGAGGAGGAACUGUUUGAUAUUCUCAAUUUGUUGGACAGCUAUCUCAAGAGCAGCAGUACUGGCGUGGUGAUGGGAGCCACCAAACUCUUUCUGAUU: 0.152 ratio
AUGAGAAACAGUAUCUUAGCCCAAGUUCUGGAUCAGUCAGCCCGGGCCAGAUUAAGUAACUUAGCACUUGUAAAGCCUGAAAAAACUAAAGCAGUGGAGAACUACCUUAUACAGAUGGCG: 0.28 ratio
UGUGAGUGAGGGUAUGUGCACCUAAGUGUGUACAUGUGUGUAUGUUGUGAAAGUGUCUGUGCACAUGAAUGUUUGUGUGUGUGUGAACUCUUUCUUACUGCUGGAAGUCACAGAAUUCAU: 0.13 ratio
CCCCAAUACCAUUUGCAGGUCUGGAACUGCACUCUCUUUUUUAAAAAACAUGUAUACAUUUUAGGGCUGUAGAUUUAUUUUCCUGGUUUUGUUUUUCAUUGCUGACUUUUGAGCACAGAA: 1.65 ratio
UACUCGCCCACCUCUCCCAGCUACUCGCCCACCUCUCCCAGCUACUCACCCACUUCCCCUAGCUACUCGCCCACUUCCCCUAGCUACUCGCCAACGUCUCCCAGCUACUCACCGACAUCU: 0.801 ratio
AACAGAAGAAAAGUAAUGGACUCUGAUGAAGAUGACGAUUAUUGAACUACAAGUGCUCACAGACUAGAACUUAACGGAACAAGUCUAGGACAGAAGUUAAGAUCUGAUUAUUUACUUUGU: 0.0624 ratio

Series 5
Target: Interferon regulatory factor 7, full length, phosphomimetic (IRF7, Homo sapiens, UniProt Q92985, residues 1-503, S471D/S472D/S475D/S476D/S477D/S483D/S484D/S487D)
Technique: protein-binding microarray
Molecule type: double-stranded DNA, one strand shown
Medium: in vitro
Concentration: 2200 nM top
Notes: 60-bp whole probe
Added: salmon DNA 0.4 mg/ml
Baseline: random background probes
Direction: higher = stronger binding
Endpoint: fitted relative affinity
All sequences stand within: GCCTAGCAC … GTCTTGATTCGCTTGACGCTGCTG
Target sequence (chain): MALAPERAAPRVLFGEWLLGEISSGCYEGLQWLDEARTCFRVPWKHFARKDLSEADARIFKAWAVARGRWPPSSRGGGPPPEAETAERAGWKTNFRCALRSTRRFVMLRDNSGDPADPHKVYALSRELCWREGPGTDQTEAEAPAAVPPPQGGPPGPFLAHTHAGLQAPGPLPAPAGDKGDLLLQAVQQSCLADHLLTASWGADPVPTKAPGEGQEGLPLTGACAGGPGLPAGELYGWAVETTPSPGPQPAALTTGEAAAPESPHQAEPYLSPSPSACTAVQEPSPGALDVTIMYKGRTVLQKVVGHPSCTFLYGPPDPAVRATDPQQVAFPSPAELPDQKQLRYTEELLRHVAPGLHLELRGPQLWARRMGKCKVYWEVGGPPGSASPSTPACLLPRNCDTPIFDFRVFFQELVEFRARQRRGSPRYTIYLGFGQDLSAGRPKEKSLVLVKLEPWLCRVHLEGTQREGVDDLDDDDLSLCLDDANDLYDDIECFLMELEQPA
GACGAACTGAGTCTCGAGAGGTGCTAG: -0.128 z-score
CTCTGGTTCTTGCTTGGTGTCGTGCTA: 0.891 z-score
TTAGCTTTCGACACTGGGTTAGTGCTA: 2.52 z-score
TTAAATATCAGACTGGATTAGTGCTAG: -0.61 z-score
GACGAACTGACTATCGAGACGTGCTAG: 0.0739 z-score
GACGGTTTCGTTTTCCTGACGTGCTAG: 11.7 z-score
TAATGCTTCTGTATTCATGAGTGCTAG: 0.857 z-score
TTAGAACTGGGGATTCGATTAGTGCTA: 0.262 z-score

Series 6
Cell line: HEK-293T/ACE2
Concentration: concentration not given
Time: 16 (unit not given)
Baseline: vehicle
Endpoint: viability
CC1=CC(=O)c2ccccc2C1=O: 96.3%
C#C[C@]1(O)CC[C@H]2[C@@H]3CCC4=CC(=O)CC[C@@H]4[C@H]3CC[C@@]21CC: 103%
N=C(N)c1ccc(OCCCCCOc2ccc(C(=N)N)cc2)cc1: 89.2%
CC(=O)N[C@H]1[C@H]([C@H](O)[C@H](O)CO)OC(C(=O)O)=C[C@@H]1N=C(N)N: 106%

For quick reference, copied from above (series 2):
CN(CCOc1ccc(CC2SC(=O)NC2=O)cc1)c1ccccn1 (centres unmarked): 4.99%
O=C(COc1cccc2c(=O)[nH]ccc12)c1ccccc1: 1.84%
O=C(Nc1cccc(Cl)c1)c1ccccn1: 6.72%
CN(C)CCn1nnnc1SCC1=C(C(=O)O)N2C(=O)[C@@H](NC(=O)Cc3csc(N)n3)[C@H]2SC1: -0.09%
C1=Cc2cccc(OCC3CNCCO3)c2C1 (centres unmarked): 1.25%
CC(C)(CO)Cc1cc(C(C)(C)C)c(O)c(C(C)(C)C)c1: 2.6%
CN1CCC2=C(C1)c1ccccc1Cc1ccccc12: 6.11%
CN1CCN(C(c2ccccc2)c2ccc(Cl)cc2)CC1 (centres unmarked): -5.27%
